# Measured values gathered from unrelated publications.
# A part holds a random share of what one study measured.

# Set 1
# Target: Hepatocyte nuclear factor 3-beta, forkhead domain (FOXA2, Homo sapiens, UniProt Q9Y261, residues 142-269)
# Method: protein-binding microarray
# Form: double-stranded DNA, one strand shown
# Medium: in vitro
# Tested at: not given
# Notes: k-mer, scored over probes, only values ≥0.25
# Direction: higher = stronger binding
# Target sequence (chain): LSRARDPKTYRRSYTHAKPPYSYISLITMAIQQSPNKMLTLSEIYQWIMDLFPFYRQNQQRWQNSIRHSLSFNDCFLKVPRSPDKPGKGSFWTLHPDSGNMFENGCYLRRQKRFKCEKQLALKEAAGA
Sequence,E-score
AAACATTT,0.251
GTGTTGTA,0.268
ATACACAT,0.359
ACATGAGA,0.257
ACGTACAT,0.255
AACCTATA,0.323
ACAGTACA,0.297
TTATCCAA,0.281
ATCATAGC,0.25
AATGCATT,0.292
ACACAATG,0.276
AAGCAAAC,0.263
TAGATACA,0.307
AACTAATA,0.378
GACATAAA,0.263
TAACATAA,0.357
AGTGTAAG,0.258
AAATTTAC,0.253

# Set 2
# Target: RNA binding protein fox-1 homolog 2, RRM domain, GST-SBP tag (RBFOX2, Homo sapiens, UniProt O43251-10, residues 100-194)
# Method: RNA Bind-n-Seq
# Form: RNA
# Medium: in vitro
# Tested at: 365 nM
# Notes: natural RNA segment, single round, ends assumed
# Reference: no-protein control
# Direction: higher = stronger binding
# Shared flanks, not repeated: GGGAGUUCUACAGUCCGACGAUC … UGGAAUUCUCGGGUGCCAA
# Target sequence (chain): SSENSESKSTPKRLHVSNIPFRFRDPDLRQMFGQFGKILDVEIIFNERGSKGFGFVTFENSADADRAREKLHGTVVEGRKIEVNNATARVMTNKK
Sequence,RBNS enrichment (R)
UAUAUAUUUUACCAAUUUAAUGUGAAUUUUAAAAAAUCCCUAUGCUAUUUAAAAGAAAGAAAAUGUAUUUUCCAUAGUAGUUUUGUGUAAAUCGUAUGAUUCACCUCAUC,0.479
UCCCAUCCCACCCUGUUCUUUCCAUAGAACUUUUGAUAUCAGGCAAACGGUUUCCUUUUUGAGAUAUUUUAACAGAGAAGGGGUGGGGGAGAAGCAGAUGAAGCUGUACU,0.352
UCCCGUGGCUAGAUCCAGAGCAGAUUCAGCCGGCUCAUUUCCAAGGGCUGGGCCACUGCACAGUUUGUCUGUCCCCGUUGGACUCUUGAGCUCCUCUGGGAAGGCCUUUC,0.247
UUUGAAGUCUGUACUUGAAAUCUGUCUGGAAGUGUUUCCUUGUUAGUUUUGGGUUUCUCCCCUGUCCCAAGGCUCAGAGUCUUCAUCUCCUACGUGACUGACUACAGUUG,0.469
UGUACAGCGGCUUGGCCUCUCACGAUCCAUUGUAUGGCUUUAUAAAUGAUAAAGUUACACAAACCCACCUGUGGCCUGGCUUCGUUUGGGCUCUGCUGGGGGUCUUCAAG,0.177
CUACAACUGAAGCCAGAAAAGUGAUAUUGUUUAAAUUUCAAGGACAUUAAUAUUAUUAAUAUAAUAAUGGUGAUGGUGAUGAUGAAAACUGAGGACUUUAAAAGAGAUUU,0.628
AGUGGCCUCUAGAGGGUGGUCCUGUAGACCGCACCUUUUAGAGUCGAGGCCUCUGUGGUUGUGCCGCGGGUUUGCUGCUGUGCUGAGUCCUUCUGGGGGAGCCCUAAGAG,0.402
CCAAAGACCCUACAUCGAAUUUCCUUGAAGAAUGGUUCACGGGAUUUCUGUCCCUGAUGAAAGACUGCCCAUUCACCUUGGUUCCCUCCCCUUGUGGCUAAACGAAAGCA,12.1
AAAAACCAUAAUUGCUUGUGGUGAAACGAAGCAGUCUUCAUGUUAAGUAGCAAUGGUUAUUUUUAUUGGUAGUAACUGAACAGUGUUUUGCAAUUUGUGAAACAGUGUAU,0.295
CUGGCGUUUGUAGAGAAAGUGGGACGCUGUUCUCUUCAUAUUUAAAUGCCAGCCAGGUGCUGGCUGUGGGCUUUCCCUCCUCAACACCCUUAUUUAGAAAGGAAACUGUG,0.578
UAGCAAUAGCAGCCCCAUCUACCCUUUGAGUCCUCAACUAAACACCAGUGGGAAGAGAACCGUUCCAUCCUCUGGUGUUAACGCCUUAAUGUCCCCAGUAUUUACUAUGA,0.481
GUGGCUAGAGGUGGGGUGGGAAGAGAGGAGGCCAGGCCAGGCCCUCAGGAAUUCCCUGGUUUCCACUGGGCCACCCACUUGCUGGACAGUCUGAGCCAAGUCCCUCCUGC,0.293

# Set 3
# Target: Phosphate system positive regulatory protein PHO4, full length, GST-tagged (PHO4, Saccharomyces cerevisiae, UniProt P07270, residues 1-312)
# Method: competition protein-binding microarray
# Form: double-stranded DNA, one strand shown
# Medium: in vitro
# Tested at: 2 µM
# Notes: whole 60-bp probe, lowest competitor level
# Added: Cbf1 competitor, 0.05 µM
# Direction: higher = stronger binding
# Shared flanks, not repeated: … GTCTTGATTCGCTTGACGCTGCTG
# Target sequence (chain): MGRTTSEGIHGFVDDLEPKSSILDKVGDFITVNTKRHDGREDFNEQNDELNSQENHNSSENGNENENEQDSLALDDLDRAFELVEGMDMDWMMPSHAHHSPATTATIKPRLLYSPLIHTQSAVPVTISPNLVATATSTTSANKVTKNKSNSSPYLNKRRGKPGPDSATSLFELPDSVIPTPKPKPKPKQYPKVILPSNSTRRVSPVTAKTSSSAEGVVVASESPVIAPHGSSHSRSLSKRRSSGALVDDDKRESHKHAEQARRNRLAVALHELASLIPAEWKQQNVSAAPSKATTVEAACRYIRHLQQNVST
Sequence,fluorescence intensity
ACCTGCACCGCCACCCCTTCCAGATCTATTTAAAAC,5540 a.u.
TTGCCATCCGGATTGAACGTGTAGCAGTTTTTAAAG,9960 a.u.
ATGGGCAAGCGCATCCATGTGGCGTTTCCTACTTTT,9550 a.u.
AAATTACTAAGTTGTAAGGTGGGTGACGCCGTATGA,3810 a.u.
TAAACAAGTCTCTTACACGTGAAGCACCTACCCCAA,11800 a.u.
CGGGGTTAAGTTTGTTAGGTGGGTGGCTTGCAGCAG,5250 a.u.
AATTGATTCATATGGAACGTGACTCGTCCTCTGTAG,10500 a.u.
AACATTATGGAAGTCCATGTGAATAATTCACTCAAG,5290 a.u.
CTTCTGTAAATTTGTCACTGAACTTGACGCGCCCCG,2870 a.u.
TATAGCTCTTTAATGCACATGCAAATGCGGTGGCGC,9080 a.u.
TTTATTGATTAACAAATAATCGAGACACACTATAGA,4740 a.u.
AAAGCGGTAATTTGCGTTGTGGGTGCAGATATCTAT,4560 a.u.
CAATGTTTGTTTCCTCACGTGTGTTGGAAAAGGAAA,15700 a.u.
CGCTCGCCTCATACCCACGGGAATAAGGCAGCCGAC,6510 a.u.
GCAAAAAAAGCCCATCACGTGATGGGGAAGATTTCA,12800 a.u.
GTCTTGTCTCATTGTCACGATACTTTCCCCACTTCA,5350 a.u.
GCTGAAAAGCGCGTTCTCGTGCGATGCTTTCAGTGT,8270 a.u.
GATCCTCGCCTGGGTGGCGTGCTTTGTGGTGAATGC,6810 a.u.
GTCTTGTCTCATTTTCACGTGCCTTTCCCCACTTCA,14600 a.u.
CTTTCCCGATCTTTTCACGTGCGTTTAGCACATTTG,14000 a.u.
CTAACGAAGGTTTTTCACGTGAGATACAAGCCAAGT,10400 a.u.
TTTCAAAATCGTTTGCACGTGCTTTCGACTGCACTG,18300 a.u.

# Set 4
# Target: Sal-like protein 4, full length isoform A (SALL4, Homo sapiens, UniProt Q9UJQ4, residues 1-1053)
# Chain of UniProt Q9UJQ4 (whole entry, looked up): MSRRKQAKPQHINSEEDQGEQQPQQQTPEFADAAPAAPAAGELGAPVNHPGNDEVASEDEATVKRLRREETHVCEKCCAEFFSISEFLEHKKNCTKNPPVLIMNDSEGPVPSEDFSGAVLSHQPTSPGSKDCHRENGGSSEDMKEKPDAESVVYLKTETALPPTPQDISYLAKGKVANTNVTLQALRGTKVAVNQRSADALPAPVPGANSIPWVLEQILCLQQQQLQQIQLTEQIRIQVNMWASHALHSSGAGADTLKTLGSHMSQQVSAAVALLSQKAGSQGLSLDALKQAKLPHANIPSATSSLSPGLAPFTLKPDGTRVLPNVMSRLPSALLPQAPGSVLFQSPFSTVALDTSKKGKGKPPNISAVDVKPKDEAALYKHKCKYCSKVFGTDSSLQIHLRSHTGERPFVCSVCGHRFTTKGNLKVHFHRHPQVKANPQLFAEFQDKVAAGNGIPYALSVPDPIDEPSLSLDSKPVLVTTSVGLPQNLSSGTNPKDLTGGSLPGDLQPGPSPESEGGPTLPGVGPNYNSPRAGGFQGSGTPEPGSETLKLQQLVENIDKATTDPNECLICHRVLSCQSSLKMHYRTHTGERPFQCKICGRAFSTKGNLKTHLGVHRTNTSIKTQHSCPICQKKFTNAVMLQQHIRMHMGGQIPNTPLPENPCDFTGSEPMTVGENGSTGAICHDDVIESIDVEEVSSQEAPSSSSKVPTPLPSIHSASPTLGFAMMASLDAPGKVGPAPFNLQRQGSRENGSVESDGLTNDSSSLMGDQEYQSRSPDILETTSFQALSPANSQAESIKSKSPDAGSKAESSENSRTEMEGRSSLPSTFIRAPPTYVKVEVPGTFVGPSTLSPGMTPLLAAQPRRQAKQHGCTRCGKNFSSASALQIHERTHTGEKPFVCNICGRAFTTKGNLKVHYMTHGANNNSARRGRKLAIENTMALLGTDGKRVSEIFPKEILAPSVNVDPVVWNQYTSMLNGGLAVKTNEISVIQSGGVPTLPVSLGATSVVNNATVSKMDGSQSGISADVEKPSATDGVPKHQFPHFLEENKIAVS
# Method: universal PBM
# Form: double-stranded DNA, one strand shown
# Medium: in vitro
# Tested at: 600 nM
# Notes: 8-mer, flanks averaged, mean of replicates
# Direction: higher = stronger binding
Sequence,E-score
CTGCGTAA,0.0685
AATGGTCT,0.114
ATATTTCG,0.425
ACGCAGCG,-0.319
AAAAAATA,0.437
AAGGGTGA,-0.0626
GAGGACTC,-0.183
GGTATTTA,0.172
GCGGACTA,-0.00615
CTGCCATC,-0.0603
CGATCTGC,-0.27
ATTCCAAA,0.163
CCCGGTCG,-0.434
CCGGTAGG,-0.325
TACGTCAA,0.138
CTAACCCC,-0.244
CTCGCCGC,-0.327
CCAGCAAA,0.00671
ACCCCCAT,-0.153
TATCTGCA,0.179
CGTCCAAA,0.0802

# Set 5
# Target: Ras GTPase-activating protein-binding protein 1, C-terminal RGG region (G3BP1, Homo sapiens, UniProt Q13283)
# Chain of UniProt Q13283 (whole entry, looked up): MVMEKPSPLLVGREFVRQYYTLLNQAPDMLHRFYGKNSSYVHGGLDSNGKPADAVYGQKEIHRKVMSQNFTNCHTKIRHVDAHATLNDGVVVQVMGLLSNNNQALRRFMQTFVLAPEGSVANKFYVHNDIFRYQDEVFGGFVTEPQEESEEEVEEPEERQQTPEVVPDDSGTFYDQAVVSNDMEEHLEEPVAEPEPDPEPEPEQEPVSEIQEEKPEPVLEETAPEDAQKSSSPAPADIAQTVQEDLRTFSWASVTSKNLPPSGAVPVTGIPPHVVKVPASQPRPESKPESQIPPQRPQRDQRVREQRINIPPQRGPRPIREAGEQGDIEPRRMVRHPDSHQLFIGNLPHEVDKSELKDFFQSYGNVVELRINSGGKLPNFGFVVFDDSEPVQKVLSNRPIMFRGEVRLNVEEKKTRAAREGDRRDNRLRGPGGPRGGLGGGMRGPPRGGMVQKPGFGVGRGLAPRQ
# Method: RNA Bind-n-Seq
# Form: RNA
# Medium: in vitro
# Tested at: 1 µM
# Notes: whole 134-nt RNA, ends assumed
# Added: 150 mM KCl
# Reference: input library
# Direction: higher = stronger binding
# Shared flanks, not repeated: GGGAGUUCUACAGUCCGACGAUC … UGGAAUUCUCGGGUGUCAAGG
Sequence,log2 enrichment
UCCGCGUGUGAAGUUUUUCUCGGCUGCAUCAUGGGUGCCACAUUCUUUUUGUUGUUUUCAGUGCUGCAAAAGCCCCAUAUCUGGCCAAGU,-0.973
GUCCUGUGCUACACAUCGUAUGUACCGAAUCGGGUUUUUGGGGUUUUUGGUUUUUGGGAAAGUAUUAUGUUACGCCGUUCGGAUCUGCAC,-1
CAAGUCCUGUGCUACACAUCGUAUGUACCGAAUCGGGUUUGGGAGGGUUUUUGGGAAAGUAUUAUGUUACGCCGUUCGGAUCUGCACUUC,1.8
ACCAUGCAGGUGGGCAUCUUUGGGAAGUGGGGCAAGGGGGGGAUAGGGAGGGGGGUAACACUUUGGGAACAGGUGCUCCCAGGUCGUUUC,1.57
GCAGGAAGUAAGAACAAAUGGAAAUGCUUCGGAUAGUGGCAGGGGUGGGGGUUGCUAAGGAAAGGGUGGGAUGGGAGUGGGUAAAGAGUU,1.31
AGUCCUGUGCUACACAUCGUAUGUACCGAAUCGGGAAAAGGGAAAAGGGGAAAAGGGAAAGUAUUAUGUUACGCCGUUCGGAUCUGCACU,0.999
CACAGACAACACGCACCCACAAAAACACAGAGGGAAGGGGUUGGGAUGGGGACAGGGUGCACAGCAGGGCGGGGUAGGACCCCAGCCCCU,-0.38
UCAAGUCCUGUGCUACACAUCGUAUGUACCGAAUCGGGAAAGGGAGGGUUUGGGAAAGUAUUAUGUUACGCCGUUCGGAUCUGCACUUCC,2.04
UCCUGUGCUACACAUCGUAUGUACCGAAUCGGGAAAGGGUUUUUUUGGGUUUUUUUGGGAAAGUAUUAUGUUACGCCGUUCGGAUCUGCA,-0.47
UCCUGUGCUACACAUCGUAUGUACCGAAUCGGGGUUUGGGGUUUUUUUGGGGAAAGGGGAAAGUAUUAUGUUACGCCGUUCGGAUCUGCA,2.36
GCACGAAGUAAAAACAAAUGGAAAUGCUUCGGAUAGUGGCAGGGGUGGGGGUUGCUAAGGAAAGGGUGGGAUGGGAGUGGGUAAAGAGUU,1.71
CCUGUGCUACACAUCGUAUGUACCGAAUCGGGGAAAAAAAGGGGUUUUUGGGGUUUGGGGAAAGUAUUAUGUUACGCCGUUCGGAUCUGC,0.524
CCUGUGCUACACAUCGUAUGUACCGAAUCAAACCCCCCCAAAUUUUUUUAAACCCCCAAAAAAGUAUUAUGUUACGCCGUUCGGAUCUGC,-0.982
GUCCUGUGCUACACAUCGUAUGUACCGAAUCGGAAAAAAGGGAAAAAAGGGAAAAAAGGAAAGUAUUAUGUUACGCCGUUCGGAUCUGCA,-1.55
